Results pooled from the literature.
Each numbered part is a random draw from the data of one study; scales do not carry over between parts.
UniProt Q9SKN5, sequence (whole entry, looked up): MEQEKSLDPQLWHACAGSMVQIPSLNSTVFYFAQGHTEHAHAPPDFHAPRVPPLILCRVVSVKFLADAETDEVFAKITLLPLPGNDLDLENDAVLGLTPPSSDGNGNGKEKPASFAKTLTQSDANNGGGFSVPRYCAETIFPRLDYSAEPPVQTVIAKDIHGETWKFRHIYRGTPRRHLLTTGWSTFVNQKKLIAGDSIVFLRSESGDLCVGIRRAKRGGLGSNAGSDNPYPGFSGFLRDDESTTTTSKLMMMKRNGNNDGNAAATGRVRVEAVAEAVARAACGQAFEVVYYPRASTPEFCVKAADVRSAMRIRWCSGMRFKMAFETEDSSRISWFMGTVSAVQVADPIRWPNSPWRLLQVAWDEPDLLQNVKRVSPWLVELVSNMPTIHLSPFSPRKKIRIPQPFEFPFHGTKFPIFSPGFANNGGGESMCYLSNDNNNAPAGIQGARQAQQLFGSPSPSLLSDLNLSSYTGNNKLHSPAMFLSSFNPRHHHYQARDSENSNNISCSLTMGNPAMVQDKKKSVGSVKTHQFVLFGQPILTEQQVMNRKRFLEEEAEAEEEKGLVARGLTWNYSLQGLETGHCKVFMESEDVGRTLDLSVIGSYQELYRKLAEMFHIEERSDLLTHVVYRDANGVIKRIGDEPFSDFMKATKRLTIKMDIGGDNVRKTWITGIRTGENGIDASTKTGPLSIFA
UniProt P16234, sequence (whole entry, looked up): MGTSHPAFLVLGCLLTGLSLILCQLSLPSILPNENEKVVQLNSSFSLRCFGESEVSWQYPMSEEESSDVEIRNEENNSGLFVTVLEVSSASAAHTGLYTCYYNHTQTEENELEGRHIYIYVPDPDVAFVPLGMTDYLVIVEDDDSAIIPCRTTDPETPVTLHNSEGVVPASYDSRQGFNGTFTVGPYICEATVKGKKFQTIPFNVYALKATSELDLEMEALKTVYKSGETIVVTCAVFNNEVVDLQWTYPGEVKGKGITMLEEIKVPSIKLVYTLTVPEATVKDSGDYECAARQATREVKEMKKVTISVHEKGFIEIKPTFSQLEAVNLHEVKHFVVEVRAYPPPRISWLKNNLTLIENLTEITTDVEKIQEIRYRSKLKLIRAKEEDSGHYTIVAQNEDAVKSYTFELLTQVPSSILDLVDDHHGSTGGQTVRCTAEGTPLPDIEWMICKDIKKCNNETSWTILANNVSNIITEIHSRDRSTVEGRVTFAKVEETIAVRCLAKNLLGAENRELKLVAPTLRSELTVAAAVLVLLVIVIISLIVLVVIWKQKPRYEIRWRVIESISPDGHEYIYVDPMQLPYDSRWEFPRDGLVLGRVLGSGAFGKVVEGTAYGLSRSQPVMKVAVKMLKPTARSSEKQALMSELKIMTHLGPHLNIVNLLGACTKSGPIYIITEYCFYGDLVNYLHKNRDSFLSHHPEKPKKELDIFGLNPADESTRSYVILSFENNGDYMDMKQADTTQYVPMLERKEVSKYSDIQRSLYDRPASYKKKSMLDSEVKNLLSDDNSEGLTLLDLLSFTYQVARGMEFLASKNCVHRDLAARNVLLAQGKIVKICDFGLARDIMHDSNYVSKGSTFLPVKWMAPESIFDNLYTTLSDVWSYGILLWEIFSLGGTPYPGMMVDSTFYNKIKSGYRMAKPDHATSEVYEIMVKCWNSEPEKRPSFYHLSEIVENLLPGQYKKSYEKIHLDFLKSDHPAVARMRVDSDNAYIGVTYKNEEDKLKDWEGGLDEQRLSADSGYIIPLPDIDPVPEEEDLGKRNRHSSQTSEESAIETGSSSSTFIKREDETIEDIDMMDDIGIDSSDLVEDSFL
UniProt Q9FKM7, sequence (whole entry, looked up): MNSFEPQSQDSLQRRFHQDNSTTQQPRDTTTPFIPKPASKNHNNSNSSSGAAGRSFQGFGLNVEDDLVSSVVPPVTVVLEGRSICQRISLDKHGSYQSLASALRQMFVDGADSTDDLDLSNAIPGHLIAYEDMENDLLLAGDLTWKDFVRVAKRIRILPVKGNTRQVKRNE
UniProt Q9P0L2, sequence (whole entry, looked up): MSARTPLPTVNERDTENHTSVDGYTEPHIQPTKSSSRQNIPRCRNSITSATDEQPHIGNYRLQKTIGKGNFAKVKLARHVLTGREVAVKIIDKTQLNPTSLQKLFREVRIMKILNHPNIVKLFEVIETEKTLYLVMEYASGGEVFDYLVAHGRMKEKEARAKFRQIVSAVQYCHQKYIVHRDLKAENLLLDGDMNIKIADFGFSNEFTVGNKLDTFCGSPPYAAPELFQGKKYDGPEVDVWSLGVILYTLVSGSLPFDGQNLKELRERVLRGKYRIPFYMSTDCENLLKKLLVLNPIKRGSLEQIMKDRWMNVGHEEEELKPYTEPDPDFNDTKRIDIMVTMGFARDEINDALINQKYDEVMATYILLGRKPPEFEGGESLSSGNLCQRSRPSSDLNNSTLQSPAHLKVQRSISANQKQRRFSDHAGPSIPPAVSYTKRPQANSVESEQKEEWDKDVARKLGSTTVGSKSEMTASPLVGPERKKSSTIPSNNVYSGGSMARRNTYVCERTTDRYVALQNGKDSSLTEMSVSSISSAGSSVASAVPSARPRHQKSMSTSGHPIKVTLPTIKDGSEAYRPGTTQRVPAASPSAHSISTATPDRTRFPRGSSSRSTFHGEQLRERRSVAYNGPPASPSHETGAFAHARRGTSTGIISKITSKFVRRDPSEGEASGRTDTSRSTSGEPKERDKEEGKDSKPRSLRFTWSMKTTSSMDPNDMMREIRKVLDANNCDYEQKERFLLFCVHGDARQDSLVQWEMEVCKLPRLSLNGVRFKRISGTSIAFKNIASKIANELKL
UniProt Q93YR9, sequence (whole entry, looked up): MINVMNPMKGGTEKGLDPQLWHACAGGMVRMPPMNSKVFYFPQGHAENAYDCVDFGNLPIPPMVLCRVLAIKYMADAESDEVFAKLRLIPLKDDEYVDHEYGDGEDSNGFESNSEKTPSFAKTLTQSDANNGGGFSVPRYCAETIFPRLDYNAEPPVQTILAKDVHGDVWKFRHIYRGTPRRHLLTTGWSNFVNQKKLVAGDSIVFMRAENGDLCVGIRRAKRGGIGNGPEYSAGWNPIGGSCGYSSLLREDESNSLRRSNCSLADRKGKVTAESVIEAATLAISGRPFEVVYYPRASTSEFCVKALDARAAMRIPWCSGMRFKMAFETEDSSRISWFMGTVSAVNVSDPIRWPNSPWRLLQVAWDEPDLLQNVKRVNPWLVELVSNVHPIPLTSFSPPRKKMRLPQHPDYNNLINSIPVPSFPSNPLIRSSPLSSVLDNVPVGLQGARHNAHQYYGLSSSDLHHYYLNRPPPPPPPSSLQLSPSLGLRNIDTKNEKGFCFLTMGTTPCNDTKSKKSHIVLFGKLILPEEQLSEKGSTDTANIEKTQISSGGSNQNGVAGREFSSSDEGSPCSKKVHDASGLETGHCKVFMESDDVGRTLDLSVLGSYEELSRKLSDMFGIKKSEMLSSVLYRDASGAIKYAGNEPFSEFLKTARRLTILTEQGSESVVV
UniProt Q9XED8, sequence (whole entry, looked up): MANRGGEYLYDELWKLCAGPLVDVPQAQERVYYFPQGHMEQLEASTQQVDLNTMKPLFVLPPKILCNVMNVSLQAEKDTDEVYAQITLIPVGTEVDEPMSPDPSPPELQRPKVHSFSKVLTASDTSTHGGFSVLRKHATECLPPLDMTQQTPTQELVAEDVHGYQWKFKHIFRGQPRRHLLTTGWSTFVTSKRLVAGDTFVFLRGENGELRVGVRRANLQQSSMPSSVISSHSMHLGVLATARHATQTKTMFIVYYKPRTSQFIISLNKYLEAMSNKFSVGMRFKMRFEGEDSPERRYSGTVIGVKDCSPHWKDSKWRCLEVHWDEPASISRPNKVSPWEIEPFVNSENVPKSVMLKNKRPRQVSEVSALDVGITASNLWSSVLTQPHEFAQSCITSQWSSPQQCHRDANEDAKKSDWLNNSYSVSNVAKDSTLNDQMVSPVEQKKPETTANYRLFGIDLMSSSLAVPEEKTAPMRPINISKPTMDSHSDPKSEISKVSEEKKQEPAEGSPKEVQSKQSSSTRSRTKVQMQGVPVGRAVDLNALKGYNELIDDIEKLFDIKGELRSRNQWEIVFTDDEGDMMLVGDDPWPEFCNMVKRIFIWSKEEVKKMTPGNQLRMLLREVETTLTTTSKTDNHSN

Block 1
Structure (SMILES): CCCOc1ccc([C@@H]2[C@@H](C(=O)O)[C@H](c3ccc4c(c3)OCO4)CN2CC(=O)Nc2c(CC)cccc2CC)cc1
Observed: cell-free assay
Method: competition with immobilised ligand
Concentration: 1 µM
Endpoint: remaining binding
Serine/threonine-protein kinase MARK1 (MARK1, Homo sapiens, UniProt Q9P0L2): 100%
Platelet-derived growth factor receptor alpha (PDGFRA, Homo sapiens, UniProt P16234): 76%
Tyrosine-protein kinase ABL1, phosphorylated (ABL1, Homo sapiens, UniProt P00519, M351T): 80%

Block 2
Molecule: B1 (IAA1)
Method: two-hybrid
Direction: higher = firmer interaction
Endpoint: positive tests
B1: IAA1 (Arabidopsis thaliana, UniProt P49677); chain MEVTNGLNLKDTELRLGLPGAQEEQQLELSCVRSNNKRKNNDSTEESAPPPAKTQIVGWPPVRSNRKNNNNKNVSYVKVSMDGAPYLRKIDLKMYKNYPELLKALENMFKFTVGEYSEREGYKGSGFVPTYEDKDGDWMLVGDVPWDMFSSSCQKLRIMKGSEAPTAL
ARF10 575-693 (Arabidopsis thaliana, UniProt Q9SKN5); reference: out of 4 tests: 1
IAA7 (Arabidopsis thaliana, UniProt Q38825); reference: out of 2 tests: 2
ARF9 519-638 (Arabidopsis thaliana, UniProt Q9XED8); weak activation fusion; reference: out of 4 tests: 2
IAA4 (Arabidopsis thaliana, UniProt P33077); reference: out of 4 tests: 3
ARF16 570-670 (Arabidopsis thaliana, UniProt Q93YR9); reference: out of 4 tests: 0
IAA33 (Arabidopsis thaliana, UniProt Q9FKM7); reference: out of 4 tests: 0

Block 3
Target: Phosphate system positive regulatory protein PHO4, full length, GST-tagged (PHO4, Saccharomyces cerevisiae, UniProt P07270, residues 1-312)
Method: competition protein-binding microarray
Molecule type: double-stranded DNA, one strand shown
Sample: in vitro
Concentration: 2 µM
Setting: whole 60-bp probe, lowest competitor level
With: Cbf1 competitor, 0.05 µM
Direction: higher = stronger binding
Endpoint: fluorescence intensity
Residues (chain): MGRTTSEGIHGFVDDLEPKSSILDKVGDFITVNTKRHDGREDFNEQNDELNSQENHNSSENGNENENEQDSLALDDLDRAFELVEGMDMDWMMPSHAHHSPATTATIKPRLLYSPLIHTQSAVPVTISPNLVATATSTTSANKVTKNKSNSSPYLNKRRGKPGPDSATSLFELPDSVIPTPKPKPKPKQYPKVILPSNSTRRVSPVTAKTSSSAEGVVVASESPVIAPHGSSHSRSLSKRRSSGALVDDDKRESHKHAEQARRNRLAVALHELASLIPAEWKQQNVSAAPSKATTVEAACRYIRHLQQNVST
CAAACCACTATATCGCACGCACACCAGGAAAGTAAAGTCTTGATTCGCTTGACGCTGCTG: 9640 a.u.
TTAGCGTCAAGTACAAATGTGACGAAAATTTGAGGTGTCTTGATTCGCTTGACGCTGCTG: 4230 a.u.
TCGCCTTGTACTTAGCACGTTCTGAGGCATCGCCTAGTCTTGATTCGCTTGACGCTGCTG: 11700 a.u.
ATTCTAACCCTGATGAACGTGTCGGTCAACTTACCCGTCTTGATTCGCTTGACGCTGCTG: 11700 a.u.
CTTCTGTAAATTTGGGCCGTGGGTGGACGCGCCCCGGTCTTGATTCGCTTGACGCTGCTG: 5330 a.u.
CTTTCCCGATCTTGAGCAGTGGGTGTAGCACATTTGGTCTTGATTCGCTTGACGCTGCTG: 4880 a.u.
CCCATTTGGTTCTTGCGCGTGCTAATTCCGAGAGGCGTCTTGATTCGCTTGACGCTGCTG: 11400 a.u.
CATTTCCATCGATGCCATGTGACAGGGTGAATCTCGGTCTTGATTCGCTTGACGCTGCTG: 9600 a.u.

Single results of other studies
CCOC(=O)[C@@H]1CSCC(=O)N[C@@H](CC)C(=O)N(C)[C@@H](C)C(=O)N[C@H](CC(C)C)C(=O)N2CCC[C@H]2C(=O)N(CC)CC(=O)N[C@@H](CC(C)C)C(=O)N(C)[C@@H](C)C(=O)N[C@@H](CC(C)C)C(=O)N1C — logD (hydrocarbon/water): -0.448

Excerpt of the above (block 1):
Serine/threonine-protein kinase MARK1 (MARK1, Homo sapiens, UniProt Q9P0L2): 100%
Platelet-derived growth factor receptor alpha (PDGFRA, Homo sapiens, UniProt P16234): 76%
